# Experimental data collected from several papers.
# Parts stem from different laboratories: compare values within a part only.
# UniProt P07333, sequence (whole entry, looked up): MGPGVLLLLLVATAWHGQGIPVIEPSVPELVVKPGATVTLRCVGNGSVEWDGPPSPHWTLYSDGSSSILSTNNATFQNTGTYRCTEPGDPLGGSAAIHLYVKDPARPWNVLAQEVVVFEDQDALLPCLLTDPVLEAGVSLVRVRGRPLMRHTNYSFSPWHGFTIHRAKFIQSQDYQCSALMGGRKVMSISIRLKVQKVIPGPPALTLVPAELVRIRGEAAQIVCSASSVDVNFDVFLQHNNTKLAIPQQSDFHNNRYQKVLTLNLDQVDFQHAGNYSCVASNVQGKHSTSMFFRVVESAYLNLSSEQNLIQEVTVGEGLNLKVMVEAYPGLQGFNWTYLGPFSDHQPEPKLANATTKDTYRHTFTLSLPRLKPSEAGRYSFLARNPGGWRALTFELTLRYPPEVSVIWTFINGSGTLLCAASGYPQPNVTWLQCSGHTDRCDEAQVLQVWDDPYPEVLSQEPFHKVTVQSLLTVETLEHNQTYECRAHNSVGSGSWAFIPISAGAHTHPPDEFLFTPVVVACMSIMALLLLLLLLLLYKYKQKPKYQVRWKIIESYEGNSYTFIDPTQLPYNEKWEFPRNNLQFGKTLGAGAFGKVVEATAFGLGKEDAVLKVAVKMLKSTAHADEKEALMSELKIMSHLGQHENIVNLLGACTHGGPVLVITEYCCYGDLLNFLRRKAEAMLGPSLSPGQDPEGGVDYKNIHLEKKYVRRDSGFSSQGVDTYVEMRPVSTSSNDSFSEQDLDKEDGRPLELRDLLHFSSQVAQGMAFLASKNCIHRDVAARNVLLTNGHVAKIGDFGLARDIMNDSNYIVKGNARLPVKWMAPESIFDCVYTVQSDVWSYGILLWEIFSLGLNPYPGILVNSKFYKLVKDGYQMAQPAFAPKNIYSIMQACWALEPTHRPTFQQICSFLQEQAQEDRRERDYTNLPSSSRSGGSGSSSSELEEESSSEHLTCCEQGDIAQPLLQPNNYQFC
# UniProt P32249, sequence (whole entry, looked up): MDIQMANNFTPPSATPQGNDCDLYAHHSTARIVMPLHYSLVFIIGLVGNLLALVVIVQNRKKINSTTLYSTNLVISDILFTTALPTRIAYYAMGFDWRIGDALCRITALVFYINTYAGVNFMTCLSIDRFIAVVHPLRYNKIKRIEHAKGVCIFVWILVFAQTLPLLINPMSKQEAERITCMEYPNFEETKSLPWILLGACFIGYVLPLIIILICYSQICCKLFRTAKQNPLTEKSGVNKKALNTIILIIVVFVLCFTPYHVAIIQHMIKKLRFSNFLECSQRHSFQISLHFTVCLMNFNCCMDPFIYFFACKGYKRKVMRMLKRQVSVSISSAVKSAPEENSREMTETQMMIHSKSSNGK
# UniProt Q96GD4, sequence (whole entry, looked up): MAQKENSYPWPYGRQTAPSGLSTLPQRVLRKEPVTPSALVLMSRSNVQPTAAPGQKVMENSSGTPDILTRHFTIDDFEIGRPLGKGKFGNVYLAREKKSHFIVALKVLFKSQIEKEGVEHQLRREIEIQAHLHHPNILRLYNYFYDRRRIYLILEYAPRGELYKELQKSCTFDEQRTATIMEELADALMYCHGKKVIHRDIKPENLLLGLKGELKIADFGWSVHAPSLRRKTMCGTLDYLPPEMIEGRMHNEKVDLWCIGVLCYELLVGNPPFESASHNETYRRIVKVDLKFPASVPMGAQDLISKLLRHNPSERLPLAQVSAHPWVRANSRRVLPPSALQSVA
# UniProt Q15722, sequence (whole entry, looked up): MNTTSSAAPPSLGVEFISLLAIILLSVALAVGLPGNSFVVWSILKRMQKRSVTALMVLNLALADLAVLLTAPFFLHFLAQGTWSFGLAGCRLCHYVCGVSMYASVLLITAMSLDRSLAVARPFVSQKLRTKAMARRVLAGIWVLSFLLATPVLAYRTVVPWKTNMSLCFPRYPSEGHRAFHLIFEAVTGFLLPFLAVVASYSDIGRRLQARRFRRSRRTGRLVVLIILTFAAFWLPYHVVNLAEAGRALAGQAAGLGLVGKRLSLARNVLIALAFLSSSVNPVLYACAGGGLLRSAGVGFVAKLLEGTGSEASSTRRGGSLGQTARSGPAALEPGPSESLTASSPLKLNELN
# UniProt Q96LB2, sequence (whole entry, looked up): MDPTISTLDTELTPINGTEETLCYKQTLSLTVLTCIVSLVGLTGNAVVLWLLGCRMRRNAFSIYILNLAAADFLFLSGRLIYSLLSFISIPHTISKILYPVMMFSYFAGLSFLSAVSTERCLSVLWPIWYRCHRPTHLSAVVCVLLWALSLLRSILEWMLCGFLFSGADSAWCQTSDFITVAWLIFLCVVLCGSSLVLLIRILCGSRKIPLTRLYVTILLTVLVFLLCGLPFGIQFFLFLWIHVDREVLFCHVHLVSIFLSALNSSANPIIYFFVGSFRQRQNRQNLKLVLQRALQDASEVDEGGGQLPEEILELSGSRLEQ
# UniProt Q00535, sequence (whole entry, looked up): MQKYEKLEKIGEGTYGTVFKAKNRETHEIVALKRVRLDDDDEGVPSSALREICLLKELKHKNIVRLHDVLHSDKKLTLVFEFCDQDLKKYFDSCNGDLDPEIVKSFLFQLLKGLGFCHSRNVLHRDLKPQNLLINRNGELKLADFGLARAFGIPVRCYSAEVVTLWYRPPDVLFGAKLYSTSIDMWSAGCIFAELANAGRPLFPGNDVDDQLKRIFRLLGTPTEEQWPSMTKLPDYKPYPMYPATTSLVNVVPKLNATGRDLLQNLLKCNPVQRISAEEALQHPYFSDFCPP
# UniProt Q01726, sequence (whole entry, looked up): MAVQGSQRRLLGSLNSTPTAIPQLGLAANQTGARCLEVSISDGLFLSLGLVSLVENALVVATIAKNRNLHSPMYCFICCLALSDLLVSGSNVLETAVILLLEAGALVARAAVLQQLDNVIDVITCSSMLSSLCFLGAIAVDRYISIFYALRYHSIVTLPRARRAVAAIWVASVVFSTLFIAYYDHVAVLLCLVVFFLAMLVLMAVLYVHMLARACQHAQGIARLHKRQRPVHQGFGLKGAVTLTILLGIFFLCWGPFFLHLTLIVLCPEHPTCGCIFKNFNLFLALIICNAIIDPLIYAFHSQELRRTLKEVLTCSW
# UniProt O15552, sequence (whole entry, looked up): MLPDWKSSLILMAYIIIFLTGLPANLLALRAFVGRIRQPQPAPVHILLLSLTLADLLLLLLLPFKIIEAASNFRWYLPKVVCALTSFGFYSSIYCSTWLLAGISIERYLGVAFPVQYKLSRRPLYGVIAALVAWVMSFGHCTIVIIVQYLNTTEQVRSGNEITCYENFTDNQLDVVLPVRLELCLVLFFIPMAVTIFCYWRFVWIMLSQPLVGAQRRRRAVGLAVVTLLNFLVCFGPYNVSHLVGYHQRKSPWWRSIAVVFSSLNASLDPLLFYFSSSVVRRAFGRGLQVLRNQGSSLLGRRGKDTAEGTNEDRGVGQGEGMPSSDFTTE
# UniProt P34998, sequence (whole entry, looked up): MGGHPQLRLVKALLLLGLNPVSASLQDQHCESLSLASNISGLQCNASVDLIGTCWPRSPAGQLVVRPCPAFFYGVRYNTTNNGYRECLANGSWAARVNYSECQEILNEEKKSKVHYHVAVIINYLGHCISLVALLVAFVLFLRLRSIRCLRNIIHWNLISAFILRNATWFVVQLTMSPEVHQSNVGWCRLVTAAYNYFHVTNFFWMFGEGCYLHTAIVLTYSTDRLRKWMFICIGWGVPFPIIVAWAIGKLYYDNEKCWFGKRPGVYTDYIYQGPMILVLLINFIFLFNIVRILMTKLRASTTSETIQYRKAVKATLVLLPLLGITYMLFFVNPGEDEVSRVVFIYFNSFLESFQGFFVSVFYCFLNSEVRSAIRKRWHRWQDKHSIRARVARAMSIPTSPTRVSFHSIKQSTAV
# UniProt Q9NQS5, sequence (whole entry, looked up): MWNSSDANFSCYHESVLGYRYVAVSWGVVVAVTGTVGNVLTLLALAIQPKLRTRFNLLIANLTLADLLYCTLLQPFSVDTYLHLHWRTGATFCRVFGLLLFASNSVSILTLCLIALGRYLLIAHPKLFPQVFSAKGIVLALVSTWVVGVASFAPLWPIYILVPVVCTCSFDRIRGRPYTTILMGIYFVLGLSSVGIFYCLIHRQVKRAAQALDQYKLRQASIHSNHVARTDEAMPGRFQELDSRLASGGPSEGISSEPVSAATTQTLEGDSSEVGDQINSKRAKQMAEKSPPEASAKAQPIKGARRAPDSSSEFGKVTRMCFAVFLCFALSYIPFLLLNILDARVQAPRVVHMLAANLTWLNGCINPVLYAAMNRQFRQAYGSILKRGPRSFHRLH
# UniProt Q14330, sequence (whole entry, looked up): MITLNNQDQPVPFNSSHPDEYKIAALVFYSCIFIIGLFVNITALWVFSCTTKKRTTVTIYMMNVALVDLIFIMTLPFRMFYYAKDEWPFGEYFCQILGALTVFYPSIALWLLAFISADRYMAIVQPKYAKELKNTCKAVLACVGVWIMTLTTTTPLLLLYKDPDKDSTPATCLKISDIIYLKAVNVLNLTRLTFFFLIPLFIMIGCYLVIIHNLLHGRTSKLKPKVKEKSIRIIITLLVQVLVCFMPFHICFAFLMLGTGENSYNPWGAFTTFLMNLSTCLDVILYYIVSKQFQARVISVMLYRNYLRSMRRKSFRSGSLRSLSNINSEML

# Set 1
# Target: Diamine acetyltransferase 1 (Homo sapiens, UniProt P21673)
# Mode: inhibitor
# Concentration: 10 µM
# Reference: control
# Target sequence (P21673 1-171): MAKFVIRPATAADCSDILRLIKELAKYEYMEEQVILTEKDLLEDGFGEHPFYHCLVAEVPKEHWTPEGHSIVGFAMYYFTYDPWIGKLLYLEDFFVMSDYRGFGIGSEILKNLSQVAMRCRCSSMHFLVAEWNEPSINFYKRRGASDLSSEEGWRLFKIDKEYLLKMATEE
Structure (SMILES),remaining activity [%]
COc1ccc(-c2cc(=O)c3c(O)cc(O)c(-c4cc(-c5cc(=O)c6c(O)cc(OC)cc6o5)ccc4OC)c3o2)cc1,97
C=C(C)[C@@H]1CC[C@]2(C=O)CC[C@]3(C)[C@H](CC[C@@H]4[C@@]5(C)CC[C@H](O)C(C)(C)[C@@H]5CC[C@]43C)[C@@H]12,98.4
Oc1cc(O)c2c(c1)O[C@H](c1cc(O)c(O)c(O)c1)[C@H](O)C2,85.6
O=c1oc2cc(O)ccc2c2oc3cc(O)ccc3c12,101
CCCCCCCCCCCCCCCCCCCCO,91.6
Cc1cc(O)cc(O[C@@H]2O[C@H](CO)[C@@H](O)[C@H](O)[C@H]2O)c1,104
CC1(C)O[C@H]2CC(=O)OC[C@]23[C@H]2CC[C@@]4(C)[C@H](c5ccoc5)OC(=O)[C@H]5O[C@]54[C@]2(C)C(=O)C[C@@H]13,78.9
CCCCCCCCC/C=C/C(=O)CCc1ccc(O)c(OC)c1,90.3
CC(=O)O[C@H]1CC[C@]2(C)C3=C(CC[C@H]2C1(C)C)[C@]1(C)CC[C@H]([C@@H](CCC=C(C)C)C(=O)O)[C@@]1(C)CC3,113
NCCCNCCCCNCCCN,83.7
CC(C)(O)[C@@H]1CC[C@](C)([C@H]2[C@@H](O)C[C@@]3(C)[C@@H]4C[C@H](O)[C@H]5C(C)(C)[C@@H](O)CC[C@@]56C[C@@]46CC[C@]23C)O1,85.5

# Set 2
# Structure (SMILES): CCCOc1ccc([C@@H]2[C@@H](C(=O)O)[C@H](c3ccc4c(c3)OCO4)CN2CC(=O)Nc2c(CC)cccc2CC)cc1
# Effect on: cell-free assay
# Technique: competition with immobilised ligand
# Concentration: 1 µM
target,remaining binding [%]
"Receptor-interacting serine/threonine-protein kinase 4 (RIPK4, Homo sapiens, UniProt P57078)",100
"Activin receptor type-1B (ACVR1B, Homo sapiens, UniProt P36896)",90
"Cyclin-dependent kinase 5 (CDK5, Homo sapiens, UniProt Q00535)",100
"Mitogen-activated protein kinase 13 (MAPK13, Homo sapiens, UniProt O15264)",100
"Phosphatidylinositol 4-phosphate 5-kinase type-1 gamma (PIP5K1C, Homo sapiens, UniProt O60331)",100
"Serine/threonine-protein kinase DCLK2 (DCLK2, Homo sapiens, UniProt Q8N568)",85
"Macrophage colony-stimulating factor 1 receptor (CSF1R, Homo sapiens, UniProt P07333)",100
"Aurora kinase B (AURKB, Homo sapiens, UniProt Q96GD4)",77
"Serine/threonine-protein kinase Sgk1 (SGK1, Homo sapiens, UniProt O00141)",75
"Macrophage colony-stimulating factor 1 receptor, autoinhibited (CSF1R, Homo sapiens, UniProt P07333)",90
"Serine/threonine-protein kinase LATS1 (LATS1, Homo sapiens, UniProt O95835)",57
"Serine/threonine-protein kinase Nek2 (NEK2, Homo sapiens, UniProt P51955)",97
"Serine/threonine-protein kinase MAK (MAK, Homo sapiens, UniProt P20794)",93

# Set 3
# Target: Calcium/calmodulin-dependent protein kinase type II subunit alpha (CAMK2A, Homo sapiens, UniProt Q9UQM7)
# UniProt Q9UQM7, sequence (whole entry, looked up): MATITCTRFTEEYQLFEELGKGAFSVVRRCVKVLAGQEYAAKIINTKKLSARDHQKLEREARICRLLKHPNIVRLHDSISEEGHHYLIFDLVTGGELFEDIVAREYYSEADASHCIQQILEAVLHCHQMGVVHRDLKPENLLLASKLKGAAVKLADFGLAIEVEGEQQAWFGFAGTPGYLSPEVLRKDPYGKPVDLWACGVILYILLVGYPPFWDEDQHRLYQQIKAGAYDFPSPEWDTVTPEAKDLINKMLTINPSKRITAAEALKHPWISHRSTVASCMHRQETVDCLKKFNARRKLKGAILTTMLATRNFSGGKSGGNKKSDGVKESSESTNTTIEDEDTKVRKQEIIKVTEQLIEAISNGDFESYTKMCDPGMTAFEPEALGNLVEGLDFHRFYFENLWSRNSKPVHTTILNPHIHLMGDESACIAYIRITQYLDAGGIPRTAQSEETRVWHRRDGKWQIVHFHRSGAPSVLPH
# Effect on: enzyme activity
# Mode: inhibitor
# Concentration: 10 µM
SMILES,inhibition
N[C@@H](CC(=O)N1CCc2c(nc(C(F)(F)F)nc2C(F)(F)F)C1)CN1CC(F)(F)CCC1=O,-8%
CCCCCCCC/C=C/CCCCCCCC(=O)OC[C@H]1O[C@@H](n2ccc(N)nc2=O)C(F)(F)[C@@H]1O,0%
O=C1C[C@@H](c2ccccc2)Oc2cc(O[C@@H]3O[C@H](CO)[C@@H](O)[C@H](O)[C@H]3O)cc(O)c21,2%
CC(=O)N(CC(O)CO)c1c(I)c(C(=O)NCCO)c(I)c(C(=O)NCC(O)CO)c1I (centres unmarked),-3%
NC(=O)C(c1ccccc1)(c1ccccc1)[C@@H]1CCN(CCc2ccc3c(c2)CCO3)C1,15%
CCCCCCCCCCCCOC(=O)CS(=O)(=O)O,-5%
CC1(C)O[C@@H]2C[C@H]3[C@@H]4CCC5=CC(=O)C=C[C@]5(C)[C@H]4[C@@H](O)C[C@]3(C)[C@]2(C(=O)CO)O1,12%
CC(C)=CCC[C@](C)(O[C@@H]1O[C@H](CO[C@@H]2OC[C@@H](O)[C@H](O)[C@H]2O)[C@@H](O)[C@H](O)[C@H]1O)[C@H]1CC[C@]2(C)[C@@H]1[C@H](O)C[C@@H]1[C@@]3(C)CC[C@H](O[C@@H]4O[C@H](CO)[C@@H](O)[C@H](O)[C@H]4O[C@@H]4O[C@H](CO)[C@@H](O)[C@H](O)[C@H]4O)C(C)(C)[C@@H]3CC[C@]12C,9%
CC(C)=CCOc1ccc(/C=C/C(=O)c2ccc(OCC=C(C)C)cc2OCC(=O)O)cc1,1%
COC(=O)Cc1c[nH]c2ccccc12,15%
CC(=O)Oc1ccccc1C(=O)Nc1ncc([N+](=O)[O-])s1,-15%
CCCCS(=O)(=O)N[C@@H](Cc1ccc(OCCCCC2CCNCC2)cc1)C(=O)O,-10%

# Set 4
# SMILES: NC(N)=NC(=O)c1nc(Cl)c(N2CCCCCC2)nc1N
# Effect on: β-arrestin recruitment
# Mode: agonist
# Technique: PRESTO-Tango
# Concentration: 10 µM
# Reference: untreated
target,fold over basal
"G-protein coupled receptor 183 (GPR183, Homo sapiens, UniProt P32249)",0.85
"G-protein coupled receptor 6 (Homo sapiens, UniProt P46095)",1.38
"Hydroxycarboxylic acid receptor 1 (HCAR1, Homo sapiens, UniProt Q9BXC0)",0.9 fold
"Adenosine receptor A2b (ADORA2B, Homo sapiens, UniProt P29275)",1.02
"Melanocyte-stimulating hormone receptor (MC1R, Homo sapiens, UniProt Q01726)",1.77
"C-C chemokine receptor type 4 (CCR4, Homo sapiens, UniProt P51679)",1.53
"Leukotriene B4 receptor 1 (LTB4R, Homo sapiens, UniProt Q15722)",0.87
"Trace amine-associated receptor 8 (TAAR8, Homo sapiens, UniProt Q969N4)",0.78 fold
"Mas-related G-protein coupled receptor member X1 (MRGPRX1, Homo sapiens, UniProt Q96LB2)",1.05
"G-protein coupled receptor 84 (GPR84, Homo sapiens, UniProt Q9NQS5)",0.88
"Cannabinoid receptor 1 (CNR1, Homo sapiens, UniProt P21554)",0.83
"Free fatty acid receptor 2 (FFAR2, Homo sapiens, UniProt O15552)",0.65 fold
"Adrenocorticotropic hormone receptor (MC2R, Homo sapiens, UniProt Q01718)",1.22
"Corticotropin-releasing factor receptor 1 (CRHR1, Homo sapiens, UniProt P34998)",1.25
"Neuromedin-U receptor 1 (NMUR1, Homo sapiens, UniProt Q9HB89)",0.77
"Somatostatin receptor type 3 (SSTR3, Homo sapiens, UniProt P32745)",1.19 fold
"Melatonin-related receptor (GPR50, Homo sapiens, UniProt Q13585)",0.47
"G-protein coupled receptor family C group 5 member D (GPRC5D, Homo sapiens, UniProt Q9NZD1)",0.3
"5-hydroxytryptamine receptor 7 (HTR7, Homo sapiens, UniProt P34969)",1.14
"N-arachidonyl glycine receptor (GPR18, Homo sapiens, UniProt Q14330)",0.64

# Excerpt of the above (set 3):
SMILES,inhibition
O=C1C[C@@H](c2ccccc2)Oc2cc(O[C@@H]3O[C@H](CO)[C@@H](O)[C@H](O)[C@H]3O)cc(O)c21,2%
CC(C)=CCOc1ccc(/C=C/C(=O)c2ccc(OCC=C(C)C)cc2OCC(=O)O)cc1,1%
CC(=O)N(CC(O)CO)c1c(I)c(C(=O)NCCO)c(I)c(C(=O)NCC(O)CO)c1I (centres unmarked),-3%
CCCCCCCC/C=C/CCCCCCCC(=O)OC[C@H]1O[C@@H](n2ccc(N)nc2=O)C(F)(F)[C@@H]1O,0%
N[C@@H](CC(=O)N1CCc2c(nc(C(F)(F)F)nc2C(F)(F)F)C1)CN1CC(F)(F)CCC1=O,-8%
CCCCCCCCCCCCOC(=O)CS(=O)(=O)O,-5%
CC(C)=CCC[C@](C)(O[C@@H]1O[C@H](CO[C@@H]2OC[C@@H](O)[C@H](O)[C@H]2O)[C@@H](O)[C@H](O)[C@H]1O)[C@H]1CC[C@]2(C)[C@@H]1[C@H](O)C[C@@H]1[C@@]3(C)CC[C@H](O[C@@H]4O[C@H](CO)[C@@H](O)[C@H](O)[C@H]4O[C@@H]4O[C@H](CO)[C@@H](O)[C@H](O)[C@H]4O)C(C)(C)[C@@H]3CC[C@]12C,9%
CC1(C)O[C@@H]2C[C@H]3[C@@H]4CCC5=CC(=O)C=C[C@]5(C)[C@H]4[C@@H](O)C[C@]3(C)[C@]2(C(=O)CO)O1,12%
NC(=O)C(c1ccccc1)(c1ccccc1)[C@@H]1CCN(CCc2ccc3c(c2)CCO3)C1,15%
